Results collected from several papers.
Several values in a cell are separate wells, animals, samples, runs or records. Numbers after ± are the reported error.
MSP: Male-specific submandibular salivary gland protein (MSP, Mesocricetus auratus, UniProt Q9QXU1)
UniProt Q9QXU1, sequence (whole entry, looked up): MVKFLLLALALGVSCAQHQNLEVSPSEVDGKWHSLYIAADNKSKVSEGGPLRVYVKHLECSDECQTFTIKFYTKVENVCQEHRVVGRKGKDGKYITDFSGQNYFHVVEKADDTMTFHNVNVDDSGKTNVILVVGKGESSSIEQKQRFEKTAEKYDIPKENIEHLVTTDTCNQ
Drd3: D(3) dopamine receptor (Drd3, Rattus norvegicus, UniProt P19020)
UniProt P19020, sequence (whole entry, looked up): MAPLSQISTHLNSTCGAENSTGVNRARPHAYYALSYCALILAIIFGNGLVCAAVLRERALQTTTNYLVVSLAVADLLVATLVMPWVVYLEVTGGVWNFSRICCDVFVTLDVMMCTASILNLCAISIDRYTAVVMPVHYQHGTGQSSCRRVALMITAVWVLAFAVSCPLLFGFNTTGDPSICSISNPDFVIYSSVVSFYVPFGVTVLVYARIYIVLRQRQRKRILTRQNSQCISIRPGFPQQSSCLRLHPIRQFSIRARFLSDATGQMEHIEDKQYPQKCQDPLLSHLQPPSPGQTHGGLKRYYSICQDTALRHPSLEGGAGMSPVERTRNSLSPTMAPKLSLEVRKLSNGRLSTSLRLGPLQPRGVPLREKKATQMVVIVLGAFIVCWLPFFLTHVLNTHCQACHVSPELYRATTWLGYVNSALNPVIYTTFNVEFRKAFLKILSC
HRH1: Histamine H1 receptor (HRH1, Homo sapiens, UniProt P35367)
UniProt P35367, sequence (whole entry, looked up): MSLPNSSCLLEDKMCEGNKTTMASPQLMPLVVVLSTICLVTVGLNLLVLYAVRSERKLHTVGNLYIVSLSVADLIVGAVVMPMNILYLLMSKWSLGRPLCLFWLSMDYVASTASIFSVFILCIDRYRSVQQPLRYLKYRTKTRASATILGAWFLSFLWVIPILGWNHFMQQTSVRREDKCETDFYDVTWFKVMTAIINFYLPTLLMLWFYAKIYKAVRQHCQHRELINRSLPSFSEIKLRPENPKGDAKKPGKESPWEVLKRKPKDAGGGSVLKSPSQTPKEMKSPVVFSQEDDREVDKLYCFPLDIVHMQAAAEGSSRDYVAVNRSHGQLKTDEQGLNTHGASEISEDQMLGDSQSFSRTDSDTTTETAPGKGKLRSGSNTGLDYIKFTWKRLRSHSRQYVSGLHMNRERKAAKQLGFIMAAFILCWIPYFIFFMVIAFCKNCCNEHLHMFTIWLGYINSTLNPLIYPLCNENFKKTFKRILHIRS
APEX1: DNA repair nuclease/redox regulator APEX1 (APEX1, Homo sapiens, UniProt P27695)
UniProt P27695, sequence (whole entry, looked up): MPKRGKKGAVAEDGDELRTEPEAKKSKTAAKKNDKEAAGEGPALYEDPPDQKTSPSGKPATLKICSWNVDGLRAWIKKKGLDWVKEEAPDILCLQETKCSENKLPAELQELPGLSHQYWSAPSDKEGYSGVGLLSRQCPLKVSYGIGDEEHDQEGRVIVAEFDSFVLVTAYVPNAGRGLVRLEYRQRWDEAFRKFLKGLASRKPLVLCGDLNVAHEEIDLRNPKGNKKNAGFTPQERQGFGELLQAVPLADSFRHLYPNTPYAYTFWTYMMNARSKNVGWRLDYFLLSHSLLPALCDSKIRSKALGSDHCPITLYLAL
Cnr1: Cannabinoid receptor 1 (Cnr1, Rattus norvegicus, UniProt P20272)
UniProt P21462, sequence (whole entry, looked up): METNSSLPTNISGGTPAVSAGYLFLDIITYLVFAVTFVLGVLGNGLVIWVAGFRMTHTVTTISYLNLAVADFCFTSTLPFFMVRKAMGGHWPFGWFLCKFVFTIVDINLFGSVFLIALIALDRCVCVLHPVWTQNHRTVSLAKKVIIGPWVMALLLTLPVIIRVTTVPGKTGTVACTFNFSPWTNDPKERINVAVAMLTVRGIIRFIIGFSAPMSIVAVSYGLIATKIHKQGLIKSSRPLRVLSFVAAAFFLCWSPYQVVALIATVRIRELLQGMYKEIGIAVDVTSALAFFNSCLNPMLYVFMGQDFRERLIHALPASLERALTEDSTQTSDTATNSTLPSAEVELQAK
UniProt P20272, sequence (whole entry, looked up): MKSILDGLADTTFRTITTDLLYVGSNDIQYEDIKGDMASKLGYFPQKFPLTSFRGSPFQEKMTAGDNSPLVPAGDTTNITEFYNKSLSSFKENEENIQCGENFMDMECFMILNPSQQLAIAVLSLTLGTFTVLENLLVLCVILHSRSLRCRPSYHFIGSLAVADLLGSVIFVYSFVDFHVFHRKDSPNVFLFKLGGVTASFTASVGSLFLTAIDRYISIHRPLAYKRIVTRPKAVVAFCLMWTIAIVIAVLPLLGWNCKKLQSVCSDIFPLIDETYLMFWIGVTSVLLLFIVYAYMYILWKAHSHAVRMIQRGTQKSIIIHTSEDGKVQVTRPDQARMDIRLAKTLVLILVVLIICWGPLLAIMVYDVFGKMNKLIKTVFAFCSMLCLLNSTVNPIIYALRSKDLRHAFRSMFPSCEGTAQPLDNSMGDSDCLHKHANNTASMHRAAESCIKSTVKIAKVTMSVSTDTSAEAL
UniProt Q8NER1, sequence (whole entry, looked up): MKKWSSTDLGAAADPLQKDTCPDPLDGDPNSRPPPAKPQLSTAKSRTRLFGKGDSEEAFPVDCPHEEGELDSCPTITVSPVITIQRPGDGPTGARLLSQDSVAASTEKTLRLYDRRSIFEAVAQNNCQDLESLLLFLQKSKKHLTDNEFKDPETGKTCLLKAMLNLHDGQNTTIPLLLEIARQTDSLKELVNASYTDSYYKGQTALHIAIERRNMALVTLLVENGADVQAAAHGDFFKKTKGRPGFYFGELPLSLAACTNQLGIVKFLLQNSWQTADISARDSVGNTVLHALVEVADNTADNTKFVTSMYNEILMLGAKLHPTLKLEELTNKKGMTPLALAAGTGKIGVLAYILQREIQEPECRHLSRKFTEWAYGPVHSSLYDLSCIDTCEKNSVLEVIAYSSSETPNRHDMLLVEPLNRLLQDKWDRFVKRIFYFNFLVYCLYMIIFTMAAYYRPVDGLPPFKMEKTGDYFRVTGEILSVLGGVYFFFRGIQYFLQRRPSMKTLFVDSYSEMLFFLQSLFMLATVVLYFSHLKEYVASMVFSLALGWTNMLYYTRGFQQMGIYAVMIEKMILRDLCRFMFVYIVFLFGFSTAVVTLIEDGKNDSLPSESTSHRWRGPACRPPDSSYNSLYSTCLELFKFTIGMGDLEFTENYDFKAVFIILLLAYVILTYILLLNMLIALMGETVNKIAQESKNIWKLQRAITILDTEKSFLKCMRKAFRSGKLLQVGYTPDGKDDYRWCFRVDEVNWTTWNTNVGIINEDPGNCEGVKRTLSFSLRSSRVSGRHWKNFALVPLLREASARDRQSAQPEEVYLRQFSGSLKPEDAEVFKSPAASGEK
UniProt P12530, sequence (whole entry, looked up): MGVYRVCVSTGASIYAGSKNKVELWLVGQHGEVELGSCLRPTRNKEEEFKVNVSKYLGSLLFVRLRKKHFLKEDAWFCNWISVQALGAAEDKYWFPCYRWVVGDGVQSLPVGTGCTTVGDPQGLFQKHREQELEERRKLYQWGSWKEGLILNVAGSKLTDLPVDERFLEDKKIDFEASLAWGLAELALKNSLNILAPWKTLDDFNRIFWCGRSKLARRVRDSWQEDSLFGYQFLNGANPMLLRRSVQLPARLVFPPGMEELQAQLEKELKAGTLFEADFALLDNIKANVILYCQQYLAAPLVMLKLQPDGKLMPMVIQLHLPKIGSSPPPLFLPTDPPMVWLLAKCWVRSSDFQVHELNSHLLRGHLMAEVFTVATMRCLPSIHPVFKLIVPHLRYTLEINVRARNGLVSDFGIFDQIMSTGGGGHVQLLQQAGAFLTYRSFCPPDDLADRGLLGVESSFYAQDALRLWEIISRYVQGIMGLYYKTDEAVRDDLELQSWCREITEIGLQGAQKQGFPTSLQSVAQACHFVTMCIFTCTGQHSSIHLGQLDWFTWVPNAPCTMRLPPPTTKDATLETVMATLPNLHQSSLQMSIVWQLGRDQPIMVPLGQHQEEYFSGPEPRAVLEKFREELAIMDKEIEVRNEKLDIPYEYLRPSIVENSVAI
UniProt P47900, sequence (whole entry, looked up): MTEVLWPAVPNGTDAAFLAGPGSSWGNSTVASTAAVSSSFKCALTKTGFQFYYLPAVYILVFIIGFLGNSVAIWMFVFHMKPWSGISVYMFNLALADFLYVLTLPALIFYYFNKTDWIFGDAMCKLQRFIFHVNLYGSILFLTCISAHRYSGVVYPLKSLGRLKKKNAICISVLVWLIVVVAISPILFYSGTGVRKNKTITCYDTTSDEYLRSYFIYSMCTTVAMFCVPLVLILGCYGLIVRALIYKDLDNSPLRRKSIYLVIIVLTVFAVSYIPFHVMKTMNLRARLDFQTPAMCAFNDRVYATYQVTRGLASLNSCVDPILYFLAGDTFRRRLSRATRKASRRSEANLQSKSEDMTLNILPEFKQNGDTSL
UniProt P21396, sequence (whole entry, looked up): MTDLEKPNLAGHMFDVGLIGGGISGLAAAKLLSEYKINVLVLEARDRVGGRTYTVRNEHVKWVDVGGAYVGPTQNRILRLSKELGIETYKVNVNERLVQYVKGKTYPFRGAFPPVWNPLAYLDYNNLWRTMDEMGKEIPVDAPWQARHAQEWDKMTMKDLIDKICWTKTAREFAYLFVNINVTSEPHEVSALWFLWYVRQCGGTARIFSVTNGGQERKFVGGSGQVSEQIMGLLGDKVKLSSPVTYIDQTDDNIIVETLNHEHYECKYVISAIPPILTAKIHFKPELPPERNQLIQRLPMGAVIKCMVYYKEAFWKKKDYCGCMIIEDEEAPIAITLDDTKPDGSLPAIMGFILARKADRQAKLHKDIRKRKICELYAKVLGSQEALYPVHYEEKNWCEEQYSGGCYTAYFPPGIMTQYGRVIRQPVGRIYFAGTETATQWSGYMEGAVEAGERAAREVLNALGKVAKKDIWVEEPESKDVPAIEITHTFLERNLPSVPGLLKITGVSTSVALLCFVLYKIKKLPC
UniProt P04818, sequence (whole entry, looked up): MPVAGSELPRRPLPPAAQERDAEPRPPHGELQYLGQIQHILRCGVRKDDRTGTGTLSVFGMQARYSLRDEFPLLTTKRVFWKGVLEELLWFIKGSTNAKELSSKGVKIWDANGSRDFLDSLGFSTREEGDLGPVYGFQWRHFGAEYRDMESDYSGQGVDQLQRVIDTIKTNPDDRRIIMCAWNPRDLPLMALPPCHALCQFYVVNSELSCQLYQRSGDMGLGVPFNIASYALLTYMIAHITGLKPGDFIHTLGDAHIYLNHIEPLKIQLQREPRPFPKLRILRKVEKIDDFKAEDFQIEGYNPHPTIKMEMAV

CCCN1C(=O)C(O)=C(C(=O)c2ccccc2)C1c1cc(OC)ccc1OC (centres unmarked)
Ki (FPR1 (Homo sapiens, UniProt P21462); ligand displacement in cells): 1 µM and < 2 µM

O=C(Cc1cccs1)N[C@@H](Cn1cc(-c2cccc(-c3nn[nH]n3)c2)nn1)B(O)O
Ki (Beta-lactamase ADC-7 (Acinetobacter baumannii, UniProt Q6DRA1); inhibitor; 5 min preincubation, pH 7.4, room temperature, with: nitrocefin): 0.099 ± 0.002 µM

CCCN(Cc1cccc([N+](=O)[O-])c1)C(=O)CCc1ccc(F)cc1
Ki (SIGMAR1 (Cavia porcellus, UniProt Q60492); binding; guinea pig liver membranes; with: [3H]-(+)-pentazocine 10 nM): > 100 µM

CCCCCCC(C)=O
Ki (MSP; binding, fluorescence displacement; with: 1-AMA 2 µM): 1.48 µM

CCCN(CCC1(O)CC(NC(=O)c2ccccc2OC)C1)[C@H]1CCc2nc(N)sc2C1 (stereo in doubt)
Ki (Drd3; ligand displacement, radioligand; cell membranes): 0.001 µM

O=C(O)C(Cc1ccccc1)[C@@H]1CCN[C@H]1C(=O)O (relative stereo)
Ki (NMDA receptor, rat; binding; cortical synaptosomes; with: [3H]-CGP 39653): > 100 µM

CCCN(CCC1(O)CC(NC(=O)c2ccc(OC)cc2)C1)[C@H]1CCc2nc(N)sc2C1 (stereo in doubt)
Ki (dopamine D1-like receptor, rat; radioligand binding; rat striatal membranes; with: [3H]SCH23390): 42.8 ± 3.28 µM

COc1cc(O)cc2ccc3cccc(O)c3c12
Ki (alpha-glucosidase (Saccharomyces cerevisiae); inhibitor, Lineweaver-Burk secondary plot): 31.8 µM

N=C(NCCCCN)NCCCc1c[nH]cn1
Ki (HRH1; ligand displacement, radioligand; cell membranes): > 10 µM

CCCN(CCC1(O)CC(NC(=O)c2ccc(F)cc2)C1)[C@H]1CCc2nc(N)sc2C1 (stereo in doubt)
Ki (Drd3; ligand displacement, radioligand; cell membranes): 0.00089 µM

C/C(=N\Nc1cc(C)nc2ccc(C)cc12)c1cn(C)n(-c2ccccc2)c1=O
Ki (APEX1; enzyme activity, inhibitor): 10.9 µM

NC(=O)C1=CN([C@@H]2O[C@H](COP(=O)(O)OP(=O)(O)OC[C@H]3O[C@@H](n4cnc5c(N)ncnc54)[C@H](O)[C@@H]3O)[C@@H](O)[C@H]2O)C=CC1
Ki (Homoisocitrate dehydrogenase, mitochondrial (Saccharomyces cerevisiae S288c, UniProt P40495); enzyme activity, inhibitor): ~2700 µM

Cc1c(C(=O)NCc2ccccc2/N=N/c2ccccc2)nn(-c2ccc(Cl)cc2Cl)c1-c1ccc(Cl)cc1
Ki (Cnr1; radioligand binding; rat brain membranes; trans isomer, 454 nm light, with: [3H]CP55940 0.6 nM): 0.224 ± 0.148 µM

O=C(O)c1c(Cl)c(Cl)c(Cl)c(Cl)c1-c1c2cc(I)c(=O)c(I)c-2oc2c(I)c(O)c(I)cc12
Ki (Dual specificity protein phosphatase 5 (Homo sapiens, UniProt Q16690); enzyme activity, noncompetitive inhibitor; 15 min, light, two-Ki model): 0.08 µM

Nc1nc2[nH]c3cccc(Sc4ccc5ccccc5c4)c3c2c(=O)[nH]1
Ki (TYMS (Homo sapiens, UniProt P04818); inhibitor; upper limit value, with: dUMP 100 µM, methylene-THF 100 µM): 0.0033 ± 0.0024 µM

O=C(CCc1ccccc1)N(O)C/C=C/P(=O)(O)O
Ki (1-deoxy-D-xylulose 5-phosphate reductoisomerase, apicoplastic (DXR, Plasmodium falciparum, UniProt O96693); inhibitor, Lineweaver-Burk plot; with: DXP varied, NADPH 150 µM): 0.338 µM

N=C(NCCCCCCCCNC(N)=O)NCCCc1c[nH]cn1
Ki (HRH1; ligand displacement, radioligand; cell membranes): > 3.16 µM

Cc1cccc(/N=N/c2c(C)c(C(=O)NN3CCCCC3)nn2-c2ccc(Cl)cc2Cl)c1
Ki (Cnr1; radioligand binding; rat brain membranes; trans isomer, 454 nm light, with: [3H]CP55940 0.6 nM): 0.41 ± 0.103 µM

C=CC(C)CCCC(C)(C)O (centres unmarked)
Ki (MSP; binding, fluorescence displacement; with: 1-AMA 2 µM): 2.1 µM

CC(=O)N[C@@H]1[C@@H](O)[C@H](O[C@@H]2O[C@H](CO)[C@@H](O[C@@H]3O[C@H](CO)[C@@H](O[C@@H]4O[C@H](CO)[C@@H](O[C@@H]5O[C@H](CO)[C@@H](O)[C@H](O)[C@H]5NC(C)=O)[C@H](O)[C@H]4NC(C)=O)[C@H](O)[C@H]3NC(C)=O)[C@H](O)[C@H]2NC(C)=O)[C@@H](CO)O[C@H]1O
Ki (LysM receptor-like kinase (Brachypodium distachyon, UniProt A0A0Q3FRN3); binding, competition crosslinking; membrane fractions; YFP-tagged target, with: 10 nM biotinylated compound): ~0.01 µM

N=C(NCCCCCCN)NCCCc1c[nH]cn1
Ki (HRH1; ligand displacement, radioligand; cell membranes): > 10 µM

CCCCCCOc1nc(C(F)(F)F)ccc1CNC(=O)[C@H](C)c1ccc(NS(C)(=O)=O)c(F)c1
Ki (TRPV1 (Homo sapiens, UniProt Q8NER1); calcium influx, antagonist, FLIPR; CHO cells expressing human TRPV1; with: capsaicin): 1 to 10 µM

CCCN(CCC1(O)CC(NS(=O)(=O)c2ccc(OC)cc2)C1)[C@H]1CCc2nc(N)sc2C1 (stereo in doubt)
Ki (Drd3; ligand displacement, radioligand; cell membranes): 0.0016 µM

N=C(NCCCCNC(N)=O)NCCCc1c[nH]cn1
Ki (HRH1; ligand displacement, radioligand; cell membranes): > 31.6 µM

CNc1nc(C#CCCCCc2cn(CCNC(C)=O)nn2)nc2c1ncn2[C@H]1C[C@H](OP(=O)(O)O)[C@]2(COP(=O)(O)O)C[C@H]12
Ki (P2Y purinoceptor 1 (P2RY1, Homo sapiens, UniProt P47900); ligand displacement, radioligand; cell membranes): 8.3 µM

CCCN(CCC1(O)CC(NS(=O)(=O)c2cccc(F)c2)C1)[C@H]1CCc2nc(N)sc2C1 (stereo in doubt)
Ki (Drd3; ligand displacement, radioligand; cell membranes): 0.0012 µM

CC(C)[C@H](NC(=O)[C@H](CCCNC(=N)N)NC(=O)[C@@H](NC(=O)[C@H](C)NC(=O)[C@H](Cc1ccccc1)NC(=O)[C@@H](N)CC(=O)O)[C@@H](C)O)C(=O)O
Ki (Na(+)/H(+) exchange regulatory cofactor NHE-RF2, PDZ domain 2 (Homo sapiens, UniProt Q15599); fluorescence polarization competition; with: FITC-labelled LPA2 peptide tracer): 69.3 ± 8.7 µM

O=C(Cn1cc(COc2ccc(-c3nc4ccccc4[nH]3)cc2)nn1)Nc1cnc(-c2ccc(Br)cc2)s1
Ki (α-glucosidase; inhibitor, Lineweaver-Burk secondary plot): 8.5 µM

NS(=O)(=O)Cc1noc2ccccc12
Ki (Maoa (Rattus norvegicus, UniProt P21396); inhibitor; up to 100 µM, with: kynuramine): no inhibition

CCCN(CCC1(O)CC(NS(=O)(=O)c2ccc(Cl)cc2)C1)[C@H]1CCc2nc(N)sc2C1 (stereo in doubt)
Ki (dopamine D1-like receptor, rat; radioligand binding; rat striatal membranes; with: [3H]SCH23390): 45.9 ± 2.49 µM

CCCCCCCCOC(=O)NS(=O)(=O)Nc1ccc(-c2cc3ccccc3[nH]2)cc1OC
Ki (Polyunsaturated fatty acid lipoxygenase ALOX15 (Oryctolagus cuniculus, UniProt P12530); linoleic acid oxygenation, inhibitor; with: linoleic acid): 7.41 ± 0.87 µM

CCCN(CC[C@]1(O)C[C@@H](NC(=O)c2cccc(F)c2)C1)[C@H]1CCc2nc(N)sc2C1 (relative stereo)
Ki (dopamine D1-like receptor, rat; radioligand binding; rat striatal membranes; with: [3H]SCH23390): 56.6 ± 2.73 µM

O=C(O)[C@H]1NCC[C@@H]1[C@H](C(=O)O)c1ccccc1
Ki (NMDA receptor, rat; binding; cortical synaptosomes; with: [3H]-CGP 39653): > 100 µM

CCCN(CCC1(O)CC(NS(=O)(=O)c2ccc(F)c(F)c2)C1)[C@H]1CCc2nc(N)sc2C1 (stereo in doubt)
Ki (Drd3; ligand displacement, radioligand; cell membranes): 0.0031 µM

C/C(=N\Nc1cc(C)nc2cc3c(cc12)OCO3)c1cn(C)n(-c2ccccc2)c1=O
Ki (APEX1; enzyme activity, inhibitor): 0.18 µM
